Assay results of several laboratories.
Each numbered part is a random draw from the data of one study; scales do not carry over between parts. Several values in a cell are separate wells, animals, samples, runs or records.
Sequence of UniProt P41743 (whole entry, looked up): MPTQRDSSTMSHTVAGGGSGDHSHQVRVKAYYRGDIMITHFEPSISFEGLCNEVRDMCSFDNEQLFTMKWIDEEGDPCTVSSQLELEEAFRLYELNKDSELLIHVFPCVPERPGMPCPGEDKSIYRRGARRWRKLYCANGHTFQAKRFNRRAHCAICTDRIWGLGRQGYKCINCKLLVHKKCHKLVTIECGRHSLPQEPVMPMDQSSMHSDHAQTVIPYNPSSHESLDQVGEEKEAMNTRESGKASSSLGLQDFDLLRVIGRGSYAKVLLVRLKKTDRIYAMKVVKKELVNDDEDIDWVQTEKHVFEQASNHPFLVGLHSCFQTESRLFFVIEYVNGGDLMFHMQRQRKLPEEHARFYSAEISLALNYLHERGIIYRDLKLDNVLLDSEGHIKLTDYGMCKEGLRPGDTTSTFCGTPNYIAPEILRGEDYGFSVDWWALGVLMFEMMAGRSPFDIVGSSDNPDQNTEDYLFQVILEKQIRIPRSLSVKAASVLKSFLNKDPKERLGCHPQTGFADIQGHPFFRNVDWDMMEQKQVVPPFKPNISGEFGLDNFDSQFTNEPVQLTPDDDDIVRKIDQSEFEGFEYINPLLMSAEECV
Sequence of UniProt P42336 (whole entry, unmodified, looked up): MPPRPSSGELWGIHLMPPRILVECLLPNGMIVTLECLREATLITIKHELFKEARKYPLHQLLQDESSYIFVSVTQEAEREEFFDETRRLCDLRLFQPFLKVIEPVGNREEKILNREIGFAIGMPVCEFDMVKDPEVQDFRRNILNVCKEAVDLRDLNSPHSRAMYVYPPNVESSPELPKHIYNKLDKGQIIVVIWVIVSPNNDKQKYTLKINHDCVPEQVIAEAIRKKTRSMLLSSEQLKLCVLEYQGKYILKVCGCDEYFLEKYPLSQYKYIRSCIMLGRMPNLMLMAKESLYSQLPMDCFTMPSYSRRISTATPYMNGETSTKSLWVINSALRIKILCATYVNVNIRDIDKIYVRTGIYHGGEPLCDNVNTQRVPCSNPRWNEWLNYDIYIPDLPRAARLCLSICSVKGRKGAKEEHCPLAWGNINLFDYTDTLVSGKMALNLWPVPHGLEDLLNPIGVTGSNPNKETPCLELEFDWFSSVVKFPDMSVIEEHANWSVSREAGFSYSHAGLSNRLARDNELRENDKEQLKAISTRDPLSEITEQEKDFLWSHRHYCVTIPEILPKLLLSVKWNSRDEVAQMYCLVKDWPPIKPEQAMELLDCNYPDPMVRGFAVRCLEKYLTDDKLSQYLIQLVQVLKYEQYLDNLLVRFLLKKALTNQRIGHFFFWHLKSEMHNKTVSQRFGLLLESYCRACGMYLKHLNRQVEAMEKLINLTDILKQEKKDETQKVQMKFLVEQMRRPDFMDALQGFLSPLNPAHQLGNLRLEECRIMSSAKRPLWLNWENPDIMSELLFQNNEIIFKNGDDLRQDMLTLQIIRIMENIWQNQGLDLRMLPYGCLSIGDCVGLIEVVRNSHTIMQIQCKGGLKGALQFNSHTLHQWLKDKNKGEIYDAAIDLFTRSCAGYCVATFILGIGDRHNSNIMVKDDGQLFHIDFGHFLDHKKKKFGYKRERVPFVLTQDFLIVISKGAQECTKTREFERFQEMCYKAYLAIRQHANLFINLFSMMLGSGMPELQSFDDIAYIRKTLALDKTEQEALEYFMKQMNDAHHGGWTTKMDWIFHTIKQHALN
Sequence of UniProt O15075 (whole entry, looked up): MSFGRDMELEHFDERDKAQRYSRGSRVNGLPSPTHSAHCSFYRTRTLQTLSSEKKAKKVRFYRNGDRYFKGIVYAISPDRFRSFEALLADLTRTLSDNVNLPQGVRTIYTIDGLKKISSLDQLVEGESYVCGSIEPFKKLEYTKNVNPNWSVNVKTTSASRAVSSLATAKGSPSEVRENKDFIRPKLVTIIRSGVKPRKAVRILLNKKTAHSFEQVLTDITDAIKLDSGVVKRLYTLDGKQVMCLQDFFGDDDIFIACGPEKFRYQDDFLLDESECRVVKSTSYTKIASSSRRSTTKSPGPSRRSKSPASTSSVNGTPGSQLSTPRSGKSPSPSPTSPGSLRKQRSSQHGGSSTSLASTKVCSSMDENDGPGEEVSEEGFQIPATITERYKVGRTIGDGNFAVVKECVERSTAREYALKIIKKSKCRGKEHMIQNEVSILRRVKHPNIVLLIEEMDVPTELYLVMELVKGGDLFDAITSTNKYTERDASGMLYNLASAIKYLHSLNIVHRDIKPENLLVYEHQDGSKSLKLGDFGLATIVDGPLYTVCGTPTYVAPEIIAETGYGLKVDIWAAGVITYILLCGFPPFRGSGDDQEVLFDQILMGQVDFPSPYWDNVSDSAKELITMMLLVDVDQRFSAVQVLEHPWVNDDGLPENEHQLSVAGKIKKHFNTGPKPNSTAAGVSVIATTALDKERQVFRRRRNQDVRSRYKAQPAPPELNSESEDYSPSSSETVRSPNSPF
Sequence of UniProt Q92772 (whole entry, looked up): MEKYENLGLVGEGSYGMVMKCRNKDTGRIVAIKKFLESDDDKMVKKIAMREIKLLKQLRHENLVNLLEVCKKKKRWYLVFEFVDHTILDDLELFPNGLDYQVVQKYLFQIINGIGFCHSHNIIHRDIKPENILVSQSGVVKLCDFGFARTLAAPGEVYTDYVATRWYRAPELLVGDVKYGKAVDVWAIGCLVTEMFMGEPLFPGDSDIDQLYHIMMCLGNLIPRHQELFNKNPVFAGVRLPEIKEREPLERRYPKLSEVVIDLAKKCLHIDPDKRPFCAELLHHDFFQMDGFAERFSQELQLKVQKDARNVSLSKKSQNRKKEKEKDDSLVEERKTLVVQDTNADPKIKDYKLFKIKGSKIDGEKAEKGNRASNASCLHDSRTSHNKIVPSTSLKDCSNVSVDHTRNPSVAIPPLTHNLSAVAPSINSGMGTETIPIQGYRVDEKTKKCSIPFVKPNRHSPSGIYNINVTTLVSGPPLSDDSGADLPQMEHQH
Sequence of UniProt Q9H2G2 (whole entry, looked up): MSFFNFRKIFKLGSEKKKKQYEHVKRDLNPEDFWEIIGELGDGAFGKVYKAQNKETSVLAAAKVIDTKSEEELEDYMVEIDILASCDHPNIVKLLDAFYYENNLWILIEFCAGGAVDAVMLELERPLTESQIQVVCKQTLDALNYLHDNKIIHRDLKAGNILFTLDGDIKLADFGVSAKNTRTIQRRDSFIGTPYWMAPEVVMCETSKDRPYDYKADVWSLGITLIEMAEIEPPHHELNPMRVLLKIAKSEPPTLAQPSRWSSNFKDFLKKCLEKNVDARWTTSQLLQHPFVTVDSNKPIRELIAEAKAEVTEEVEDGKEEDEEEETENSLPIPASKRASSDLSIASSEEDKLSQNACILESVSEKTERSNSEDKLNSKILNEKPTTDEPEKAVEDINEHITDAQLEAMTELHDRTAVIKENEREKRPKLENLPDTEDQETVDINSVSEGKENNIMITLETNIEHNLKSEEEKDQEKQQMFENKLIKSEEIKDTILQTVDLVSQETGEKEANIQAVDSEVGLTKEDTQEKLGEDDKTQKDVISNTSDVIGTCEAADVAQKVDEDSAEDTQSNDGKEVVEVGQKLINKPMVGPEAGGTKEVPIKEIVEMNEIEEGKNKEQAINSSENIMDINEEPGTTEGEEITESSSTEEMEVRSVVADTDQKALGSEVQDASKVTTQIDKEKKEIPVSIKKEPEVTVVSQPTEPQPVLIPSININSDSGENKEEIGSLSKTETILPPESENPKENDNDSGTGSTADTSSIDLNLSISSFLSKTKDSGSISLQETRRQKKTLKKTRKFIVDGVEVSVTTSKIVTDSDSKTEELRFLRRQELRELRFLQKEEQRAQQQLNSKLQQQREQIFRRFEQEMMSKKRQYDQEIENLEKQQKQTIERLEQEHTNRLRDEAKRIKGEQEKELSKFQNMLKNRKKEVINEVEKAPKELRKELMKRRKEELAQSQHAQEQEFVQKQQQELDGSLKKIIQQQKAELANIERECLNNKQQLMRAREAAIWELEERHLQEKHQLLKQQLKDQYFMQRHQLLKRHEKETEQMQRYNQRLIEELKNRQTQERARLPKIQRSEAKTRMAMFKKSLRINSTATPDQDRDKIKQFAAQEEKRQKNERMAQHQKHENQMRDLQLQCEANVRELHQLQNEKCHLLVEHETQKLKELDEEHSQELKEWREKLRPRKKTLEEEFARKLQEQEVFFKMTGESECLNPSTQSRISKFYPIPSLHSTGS
Sequence of UniProt P28482 (whole entry, looked up): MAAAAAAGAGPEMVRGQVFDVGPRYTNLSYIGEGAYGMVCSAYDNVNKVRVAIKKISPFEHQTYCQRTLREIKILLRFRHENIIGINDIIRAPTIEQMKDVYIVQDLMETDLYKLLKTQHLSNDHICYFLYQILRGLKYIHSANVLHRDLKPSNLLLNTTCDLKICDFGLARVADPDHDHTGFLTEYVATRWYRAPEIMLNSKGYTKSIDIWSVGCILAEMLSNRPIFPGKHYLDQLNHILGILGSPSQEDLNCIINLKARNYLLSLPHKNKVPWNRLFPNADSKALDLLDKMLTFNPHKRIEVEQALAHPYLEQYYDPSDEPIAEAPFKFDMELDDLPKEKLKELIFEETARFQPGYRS

Series 1
Method: PRP chromatography estimate
Medium: 1,9-decadiene/PBS
pH: 7.4
| SMILES | logD |
| --- | --- |
| CC(C)C[C@@H]1NC(=O)[C@H](C(C)C)NC(=O)[C@H](C)NC(=O)[C@H](CC(C)C)NC(=O)[C@H](C(C)C)NC(=O)[C@H](CC(C)C)NC(=O)[C@@H](CC(C)C)NC1=O | 0.358 |
| CCC[C@H]1NC(=O)CSC[C@@H](C(=O)OCC)N(C)C(=O)[C@H](CC(C)C)NC(=O)[C@H](C)N(C)C(=O)[C@@H](CC(C)C)NC(=O)[C@H](C)N(C)C(=O)[C@@H]2CCCN2C(=O)[C@H](CC(C)C)NC(=O)CN(C)C1=O | -0.0851 |
| CC(C)C[C@@H]1NC(=O)[C@H](CC(C)C)NC(=O)[C@H](CC(C)C)NC(=O)[C@H](CC(C)C)NC(=O)[C@@H](CCC(=O)N2CCCC2)NC(=O)[C@H](Cc2cscn2)NC(=O)[C@H](C)NC1=O | -1.53 |

Series 2
Structure (SMILES): CN(C(=O)c1ccccc1)c1cc(N(C)c2ccc3c(c2)CCc2ccc(C(=O)NCCN4CCOCC4)cc2C3=O)ccc1F
Read-out: cell-free assay
Method: competition with immobilised ligand
Concentration: 1 µM
| target | remaining binding [%] |
| --- | --- |
| Phosphatidylinositol 3-kinase C2 domain-containing subunit gamma (PIK3C2G, Homo sapiens, UniProt O75747) | 88 |
| Muscle, skeletal receptor tyrosine-protein kinase (MUSK, Homo sapiens, UniProt O15146) | 100 |
| Dual specificity testis-specific protein kinase 1 (TESK1, Homo sapiens, UniProt Q15569) | 100 |
| Eukaryotic translation initiation factor 2-alpha kinase 1 (EIF2AK1, Homo sapiens, UniProt Q9BQI3) | 94 |
| Tyrosine-protein kinase FRK (FRK, Homo sapiens, UniProt P42685) | 72 |
| Mitogen-activated protein kinase 1 (MAPK1, Homo sapiens, UniProt P28482) | 92 |
| Tyrosine-protein kinase ZAP-70 (ZAP70, Homo sapiens, UniProt P43403) | 81 |
| Serine/threonine-protein kinase RIO1 (RIOK1, Homo sapiens, UniProt Q9BRS2) | 74 |
| STE20-like serine/threonine-protein kinase (SLK, Homo sapiens, UniProt Q9H2G2) | 98 |
| Phosphatidylinositol 4,5-bisphosphate 3-kinase catalytic subunit alpha isoform (PIK3CA, Homo sapiens, UniProt P42336, M1043I) | 96 |
| Protein kinase C iota type (PRKCI, Homo sapiens, UniProt P41743) | 100 |
| Cyclin-dependent kinase-like 2 (CDKL2, Homo sapiens, UniProt Q92772) | 93 |
| Serine/threonine-protein kinase DCLK1 (DCLK1, Homo sapiens, UniProt O15075) | 96 |
| Leucine-rich repeat serine/threonine-protein kinase 2 (LRRK2, Homo sapiens, UniProt Q5S007) | 80 |
| Platelet-derived growth factor receptor alpha (PDGFRA, Homo sapiens, UniProt P16234) | 86 |
| Phosphatidylinositol 5-phosphate 4-kinase type-2 gamma (PIP4K2C, Homo sapiens, UniProt Q8TBX8) | 62 |

Series 3
Organism: Sarcocystis neurona
Read-out: parasite growth
Concentration: 10 µM
| SMILES | inhibition [%] |
| --- | --- |
| CC(COc1ccccc1)N(CCCl)Cc1ccccc1 (centres unmarked) | -26.6 |
| CCCc1nc2c(C)cc(-c3nc4ccccc4n3C)cc2n1Cc1ccc(-c2ccccc2C(=O)O)cc1 | 10 |
| COc1ccc(CC(C)NCC(O)c2ccc(O)c(NC=O)c2)cc1.COc1ccc(CC(C)NCC(O)c2ccc(O)c(NC=O)c2)cc1.O.O.O=C(O)/C=C/C(=O)O (centres unmarked) | -25.9 |

Series 4
Cell line: mouse MPNST tumor cells
Method: high-content immunofluorescence imaging
Measured: nuclear SOX9
Concentration: 10 µM
Time: 12 h
Setting: mean of 2 replicates
Reference: DMSO control
Direction: higher = more nuclear SOX9
| Structure (SMILES) | nuclear SOX9 intensity |
| --- | --- |
| NS(=O)(=O)c1cc(C(=O)O)cc(N2CCCC2)c1Oc1ccccc1 | 91.6 % of DMSO |
| COc1ccc(-n2c(SCc3nc(-c4ccc(C)cc4)no3)nnc2-c2ccncc2)cc1 | 87 % of DMSO |
| Cc1onc(C(=O)N2CCN(C(c3ccc(Cl)cc3)c3ccc(Cl)cc3)CC2)c1[N+](=O)[O-] | 169 % of DMSO |
| CC(=O)Oc1ccccc1C(=O)O | 91.3 % of DMSO and 88.4 % of DMSO |

Series 5
Host: mouse
Medium: microsomes or S9
Concentration: 2 µM
Time: 0.5 h
| SMILES | remaining compound [%] |
| --- | --- |
| O=C1CC(c2ccccc2Cl)CC2=C1C(c1ccc3c(c1)OCO3)Nc1ccccc1N2 (centres unmarked) | 2.71 |
| COc1cc(=O)n(-c2ccccc2)cc1C(=O)NC1CC2CCC(C1)N2S(C)(=O)=O (centres unmarked) | 65.8 |
| Cc1cc(C)cc(N/C(N)=N/Cc2nc(C(C)(C)C)cs2)c1 | 0.168 |
| CS(=O)(=O)N1CCC[C@@H]1CNc1ncnc2nc[nH]c12 | > 100 |

Series 6
Target: Diamine acetyltransferase 1 (Homo sapiens, UniProt P21673)
Action: inhibitor
Concentration: 10 µM
Reference: control
Construct (P21673 1-171): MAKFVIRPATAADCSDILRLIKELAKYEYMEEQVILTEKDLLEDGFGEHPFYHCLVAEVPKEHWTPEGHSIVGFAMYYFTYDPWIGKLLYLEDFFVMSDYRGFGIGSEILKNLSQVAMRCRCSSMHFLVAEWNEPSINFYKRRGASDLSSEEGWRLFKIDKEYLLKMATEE
| SMILES | remaining activity |
| --- | --- |
| COC(=O)c1cc(O)c(O)c(O)c1 | 105% |
| COc1ccc(/C=C/C(=O)O)cc1 | 82.3% |
| COc1cc2c(=O)c(-c3ccc(O)cc3)coc2cc1O[C@@H]1O[C@H](CO)[C@@H](O)[C@H](O)[C@H]1O | 93.8% |

Single results of other studies
Target: Calcium/calmodulin-dependent protein kinase type 1G (CAMK1G, Homo sapiens, UniProt Q96NX5)
Sequence of UniProt Q96NX5 (whole entry, looked up): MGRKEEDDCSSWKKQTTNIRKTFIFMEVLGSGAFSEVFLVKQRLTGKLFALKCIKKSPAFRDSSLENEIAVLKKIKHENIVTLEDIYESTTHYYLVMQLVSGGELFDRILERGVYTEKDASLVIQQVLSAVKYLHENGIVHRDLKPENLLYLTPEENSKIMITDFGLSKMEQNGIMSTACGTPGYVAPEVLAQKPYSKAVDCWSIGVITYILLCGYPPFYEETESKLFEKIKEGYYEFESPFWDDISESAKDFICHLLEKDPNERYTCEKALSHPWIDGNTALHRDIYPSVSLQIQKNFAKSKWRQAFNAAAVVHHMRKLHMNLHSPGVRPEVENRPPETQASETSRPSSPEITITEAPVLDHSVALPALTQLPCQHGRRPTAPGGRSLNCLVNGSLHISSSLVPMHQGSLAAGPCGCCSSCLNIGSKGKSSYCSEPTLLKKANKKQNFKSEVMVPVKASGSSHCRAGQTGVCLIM
Read-out: cell-free assay
Concentration: 0.5 µM
| SMILES | remaining signal |
| --- | --- |
| C#Cc1cccc(Nc2ncnc3cc(OCCOC)c(OCCOC)cc23)c1 | 111% |
| CS(=O)(=O)CCNCc1ccc(-c2ccc3ncnc(Nc4ccc(OCc5cccc(F)c5)c(Cl)c4)c3c2)o1 | 102% |

Some of these lines once more (single results of other studies):
| SMILES | remaining signal |
| --- | --- |
| C#Cc1cccc(Nc2ncnc3cc(OCCOC)c(OCCOC)cc23)c1 | 111% |
| CS(=O)(=O)CCNCc1ccc(-c2ccc3ncnc(Nc4ccc(OCc5cccc(F)c5)c(Cl)c4)c3c2)o1 | 102% |
